Results collected from several papers.
Several values in a cell are separate wells, animals, samples, runs or records. ± marks the error that the study gave.
Chain of UniProt Q9H7Z7 (whole entry, looked up): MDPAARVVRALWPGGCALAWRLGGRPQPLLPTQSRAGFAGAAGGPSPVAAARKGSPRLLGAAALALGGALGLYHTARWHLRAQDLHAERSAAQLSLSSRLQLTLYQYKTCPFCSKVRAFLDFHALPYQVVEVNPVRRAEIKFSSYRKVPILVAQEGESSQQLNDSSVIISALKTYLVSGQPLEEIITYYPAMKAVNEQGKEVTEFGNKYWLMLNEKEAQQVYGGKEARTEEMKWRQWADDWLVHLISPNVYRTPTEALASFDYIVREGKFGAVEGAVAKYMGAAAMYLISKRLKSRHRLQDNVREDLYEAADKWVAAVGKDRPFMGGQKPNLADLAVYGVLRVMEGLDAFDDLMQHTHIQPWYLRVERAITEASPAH

Under “incidence catheter site reaction”, CC(C)c1nc(N(C)S(C)(=O)=O)nc(-c2ccc(F)cc2)c1/C=C/[C@@H](O)C[C@@H](O)CC(=O)O is recorded as 0% (healthy human subjects; oral, dose not given, study CL-0537 safety set).
CC(C)=CC1C(C(=O)OC(C#N)c2cccc(Oc3ccccc3)c2)C1(C)C (centres unmarked): “enzyme contribution to clearance” 0.24% (item: CYP3A5; human, age 5 years).
For CN1CCN(c2ccc(Nc3nccc(-c4cccnc4)n3)cc2C(F)(F)F)CC1, the toxicity was 33 ± 11% (zebrafish embryos; 25 µM, 5 d).
Clc1cc(Cl)cc(-c2cc(Cl)ccc2Cl)c1 — result for “literature range factor”: 1.2 (PDMS-water partitioning; PCB compilation; relative to: maximum over minimum K).
CC(C)CC(=O)OC[C@H]1O[C@@](C#N)(c2ccc3c(N)ncnn23)[C@H](O)[C@@H]1O: “recovery in urine and faeces” 0.0657% (Sprague-Dawley rat, both sexes, urine and faeces; 80 mg/kg, time not given; relative to: dose).
N=C(N)NCCC[C@@H](NC(=O)[C@@H](N)Cc1ccccc1)C(=O)N[C@@H](Cc1ccccc1)C(=O)N[C@@H](CCCCN)C(N)=O has an AUC(0-inf) of 3330 ng·h/mL (early Huntington's disease patients, plasma; subcutaneous, 15 mg daily, day 7, median).
CCN1[C@@H](C(=O)NC23CCC(C(=O)O)(CC2)CC3)[C@H](c2cccc(Cl)c2F)[C@]2(C(=O)Nc3cc(Cl)ccc32)C12CCCCC2 has an Embolism incidence of 0% (patients with advanced solid tumours; oral, 150 mg).
For COc1ccc(C[C@@H]2NC(=O)[C@H]([C@@H](C)O)NC(=O)[C@@H]3[C@@H]4CCN3C(=O)[C@@H]3Cc5cn(c6ccc(F)cc56)CCCCCCN(Cc5ccc(cc5)CCNC(=O)[C@]5(C)CCCN5C2=O)C(=O)CCC(=O)N[C@@H](C)C(=O)N[C@H](CNC(=O)CCCCC[N+](C)(C)C)C(=O)N[C@@H](Cc2cccc(c2)CNC(=O)CO4)C(=O)N3)cc1, “participants with adverse event” read 3.9% (item: Gastroenteritis; humans; concentration not given, Study-001).
With C1=Cc2nc1cc1ccc([n-]1)c(-c1ccccc1)c1nc(cc3ccc([n-]3)c2-c2ccccc2)C=C1.CC(=O)[O-].[Mn+3] the plasma concentration was 35 ng/mL and 21 ng/mL (LC-MS/MS; Sprague-Dawley rat, plasma; oral gavage, dose not given, 30 min).
Under “adverse event incidence”, [O-][S+]1CCc2nc(N3CCC(c4ncc(Cl)cn4)CC3)nc(NC3(CO)CCC3)c21 (centres unmarked) is recorded as 0% (item: Nausea; healthy male humans; 48 mg single dose).
For CC/C(=C(\c1ccccc1)c1ccc(OCCN(C)C)cc1)c1ccccc1, the Tmax was 6 h (CD-1 mouse, male, plasma; intraperitoneal, 30 mg/kg).
Cn1cncc1-c1c(F)cncc1NC(=O)c1c(N)nn2cc(F)cnc12 — result for “dose-limiting toxicity anaemia”: 25% (human patients; oral, 270 mg once daily, 21 days).
CN1C(=O)[C@@H](NC(=O)c2nnc(Cc3ccccc3)[nH]2)COc2cccnc21 — result for “participants with TEAE leading to death”: 0% (phase I single ascending dose; human, male and female; oral, 800 mg, fasted).
C[C@@H](NC(=O)N1C(=O)[C@H](Cc2ccnc(N)c2)[C@H]1C(=O)O)C1CCCCC1 gave a decreased WBC of 0% (healthy Chinese adults; continuous intravenous infusion, 1.5 mg/kg/h, 5.0 days).
CN(C)c1cccc2c(S(=O)(=O)N3CCN(c4ccccc4)CC3)cccc12 — result for “fluorescence quantum yield”: 21 ± 0.8% (toluene; relative to: coumarin 153 in ethanol).
With CCc1ccc(CC/C=C/c2ccc3c(c2)C(=O)CC3)cc1 the Glucose was 5.97 mM (Sprague-Dawley rat, female; oral, 120 mg/kg/day, 14 days).
COc1ncccc1-c1cnn2ccc(N3CCN(C(=O)OC(C)C)CC3)nc12 gave a drug concentration of 860 nM (rat, rotarod test, plasma; 10 mg/kg, 180 min).
Clc1ccc(-c2cc(Cl)c(Cl)c(Cl)c2Cl)cc1Cl gave a log K(PDMS-water) of 6.41 ± 0.06 (fresh water; 20 °C, S100 sampler, 100 µm).
For COc1cc2c(Oc3ccc4[nH]c(C)cc4c3F)ccnc2cc1OCC1(N)CC1, “grade 1 or 2 abdominal distension” read 25% (paediatric recurrent refractory sarcoma; 10 mg).
O=C(Nc1ccccc1)C1CCN(C(=O)Oc2cccnc2)CC1 — result for “subjects with Syncope adverse event”: 0% (adverse event reporting; healthy women; oral, 60 mg).
For CCC[C@H]1CC[C@H](c2ccc(-c3ccc(F)cc3)cc2)CC1, the concentration was 0.95 ng/mL (item: compound; human pregnant women, female fetuses, maternal serum; dose not given, paired maternal-cord samples, mean).
N.N.[Cl][Pt][Cl] gave a body weight of 24 g and 25 g and 26 g (mouse xenograft model; dose not given, day 2).
Under “List of Complaints score”, Fc1ccc([C@@H]2CCNC[C@H]2COc2ccc3c(c2)OCO3)cc1 is recorded as 0 score (item: Forgetfulness; healthy volunteers; oral, dose not given, given -1 h relative to LSD, together with: LSD; direction not given).
For CN1CC[C@@H](c2c(O)cc(O)c3c(=O)cc(-c4ccc(C(F)(F)F)cc4Cl)oc23)[C@@H]1CO, “patients with adverse event” read 0% (item: Anorexia; B-cell malignancies or AML; oral, 100 mg, continuous dosing).
CC(C)C[C@@H]1NC(=O)CNC(=O)[C@H](CC(N)=O)NC(=O)[C@H](CCCNC(=N)N)NC(=O)[C@H](CCCCN)NC(=O)[C@@H]2CSSC[C@@H]3NC(=O)[C@H]([C@@H](C)O)NC(=O)CNC(=O)CNC(=O)[C@H](C(C)C)NC(=O)[C@@H]4CSSC[C@H](NC(=O)[C@H]([C@@H](C)O)NC(=O)[C@H](CSSC[C@H](NC(=O)[C@H](C(C)C)NC(=O)[C@@H]5CCCN5C1=O)C(=O)NCC(=O)N[C@@H](CCC(=O)O)C(=O)N[C@@H]([C@@H](C)O)C(=O)N4)NC(=O)CNC(=O)[C@@H]1CCCN1C(=O)[C@H]([C@@H](C)O)NC(=O)[C@H](CC(N)=O)NC3=O)C(=O)N[C@@H](CO)C(=O)N[C@@H](Cc1c[nH]c3ccccc13)C(=O)N1CCC[C@H]1C(=O)N[C@@H](C(C)C)C(=O)N2 gave a remaining peptide of 17.3 ± 2.3% (HPLC; ammonium bicarbonate 0.1 M; 180 µM, 14 days, pH 9.0, 37 °C, deamidation stability).
The log K(PDMS-water) of c1ccc2c(c1)c1cccc3ccc4cccc2c4c31 is reported as 5.16 ± 0.03 (fresh water; 12 (unit not given), 20 °C, S30-2 sampler, 30 µm).
The nausea patients of CCN(CCO)CCCC(C)Nc1ccnc2cc(Cl)ccc12 (centres unmarked) is reported as 14% (newly diagnosed glioblastoma patients; oral, 400 mg/dose, grade 2, together with: radiotherapy and temozolomide).
Clc1cc(-c2cc(Cl)c(Cl)c(Cl)c2Cl)cc(Cl)c1Cl: “literature range factor” 1.1 (PDMS-water partitioning; PCB compilation; relative to: maximum over minimum K).
CO[C@H]1C[C@@H]2CC[C@@H](C)[C@@](O)(O2)C(=O)C(=O)N2CCCC[C@H]2C(=O)O[C@H]([C@H](C)C[C@@H]2CC[C@@H](OC(=O)NCCOCCOCCOCCOCCOCCOCCOCCOCCC(=O)N3CCc4cc(Cn5nc(-c6ccc7oc(N)nc7c6)c6c(N)ncnc65)ccc4C3)[C@H](OC)C2)C[C@@H](O)[C@H](C)/C=C(\C)[C@@H](O)[C@@H](OC)C(=O)[C@H](C)C[C@H](C)/C=C/C=C/C=C/1C — result for “dose-reducing adverse events”: 0% (phase 1 dose escalation, item: fatigue; advanced solid tumour patients; intravenous, 6 mg weekly, grade ≥3).
For O=S(=O)(Nc1ccccc1)c1ccc(NC(=S)Nc2ccccc2)cc1, the haematocrit was 47% (female mouse, blood; oral, 5 mg/kg daily, 14 days).
Under “body weight gain”, CCOc1cc(Oc2ccc(C(F)(F)F)cc2Cl)ccc1[N+](=O)[O-] is recorded as 63.5% (rat male; 7.5 mg/kg, 8 days).
For COc1cccc2c1CCCC2CCCN1CCN(C2CCCCC2)CC1 (centres unmarked), “elimination rate constant” read 6.03e-05 s⁻¹ (CD-1 mouse, male, plasma; intraperitoneal, 30 mg/kg).
For C[C@H]1CN(c2n[nH]c3nc(N[C@H]4CC[C@H](NS(=O)(=O)CCC(F)(F)F)CC4)ncc23)CCO1, the remaining binding was 1.08 (Prostaglandin E synthase 2 (Homo sapiens, UniProt Q9H7Z7); Kinobeads competition, item: PTGES2; 20 µM, unit not given; relative to: vehicle).
CC[C@H](C)[C@@H]1NC(=O)[C@@H]2CCCN2C(=O)[C@H](CC(C)C)NC(=O)[C@H](CC(C)C)NC(=O)CNC(=O)[C@@H](NC(=O)[C@@H](NC(=O)[C@H](CC(=O)O)NC(=O)CNC(=O)[C@@H](NC(=O)[C@H](C)NC(=O)CNC(=O)[C@H](CCCCN)NC(=O)[C@H](CC(C)C)NC(=O)[C@H](CC(C)C)NC(=O)[C@H](CCCCN)NC(=O)CNC(=O)[C@@H](NC(=O)[C@@H](N)CC(C)C)C(C)C)C(C)C)C(C)C)CSSC[C@@H](C(=O)O)NC1=O: “log2 fold change” -3.31 (RNA-seq, item: Cytip mRNA; mouse traumatic brain injury, frontal cortex and hippocampus; dose not given; relative to: TBI plus compound vs TBI).
For COc1cc(C2C3=C(COC3=O)N(CCO)c3cc4c(cc32)CCC4)cc(OC)c1OC (centres unmarked), the body weight was 211 g (female Sprague-Dawley rats; intraperitoneal, 200 mg/kg, 48 h, single dose, mean).
For Cc1ccc(S(=O)(=O)Nc2c(N[C@H]3CC[C@H](NC(=O)Nc4ccc(F)c(Cl)c4)CC3)c(=O)c2=O)cc1, “volume of distribution” read 12.3 L (rat, plasma; intravenous, 10 mg/kg).
For COc1ccc2nc3cc(Cl)ccc3c(Nc3cc(CN4CCCC4)c(O)c(CN4CCCC4)c3)c2n1, the monocytes was 1.79% (mouse, blood; intraperitoneal, 14 mg/kg).
CC(=O)c1c(C)c2cnc(Nc3ccc(C4CCN(CCS(C)(=O)=O)CC4)cn3)nc2n(C2CCCC2)c1=O — result for “elimination rate constant”: 2.22e-05 s⁻¹ (human patients, plasma; oral, 75 mg twice daily, day 21 multiple doses, together with: fulvestrant).
C[C@]1(CO)Cc2ncn(-c3ccc(C#N)c(Cl)c3)c2C(=O)O1: “drug-related AE incidence” 25% (human; concentration not given, European food-effect part).
For CC(C)C[C@@H]1NC(=O)CNC(=O)[C@H](CC(N)=O)NC(=O)[C@H](CCCNC(=N)N)NC(=O)[C@H]([C@@H](C)O)NC(=O)[C@@H]2CSSC[C@@H]3NC(=O)[C@H](CCCCN)NC(=O)CNC(=O)CNC(=O)[C@H](C(C)C)NC(=O)[C@@H]4CSSC[C@H](NC(=O)[C@H]([C@@H](C)O)NC(=O)[C@H](CSSC[C@H](NC(=O)[C@H](C(C)C)NC(=O)[C@@H]5CCCN5C1=O)C(=O)NCC(=O)N[C@@H](CCC(=O)O)C(=O)N[C@@H]([C@@H](C)O)C(=O)N4)NC(=O)CNC(=O)[C@@H]1CCCN1C(=O)[C@H]([C@@H](C)O)NC(=O)[C@H](CC(N)=O)NC3=O)C(=O)N[C@@H](CO)C(=O)N[C@@H](Cc1c[nH]c3ccccc13)C(=O)N1CCC[C@H]1C(=O)N[C@@H](C(C)C)C(=O)N2, the remaining peptide was 49.8 ± 6.2% (HPLC; ammonium bicarbonate 0.1 M; 180 µM, 14 days, pH 9.0, 37 °C, deamidation stability).
CC(C)C[C@H](NC(=O)[C@H](CCCCN)NC(=O)OCC1c2ccccc2-c2ccccc21)C(=O)N[C@H](C(=O)N[C@@H](Cc1ccccc1)C(=O)N[C@@H](Cc1ccccc1)C(=O)N[C@@H](CCCCN)C(=O)NCC(=O)N[C@@H](Cc1ccccc1)C(=O)N[C@@H](C)C(=O)N[C@@H](Cc1c[nH]c2ccccc12)C(=O)N[C@@H](CC(N)=O)C(=O)N[C@H](C(=O)N[C@H]1CSSC[C@@H](C(=O)N[C@@H](Cc2c[nH]cn2)C(=O)N[C@@H](CCCNC(=N)N)C(=O)N[C@@H](CCCNC(=N)N)C(=O)N[C@@H](C)C(=O)N[C@@H](CC(N)=O)C(N)=O)NC(=O)[C@H](C(C)C)NC(=O)[C@H](CCCNC(=N)N)NC(=O)[C@H](C(C)C)NC(=O)CNC(=O)[C@H](CC(N)=O)NC(=O)[C@H](CCCNC(=N)N)NC(=O)[C@H](Cc2ccc(O)cc2)NC(=O)[C@H](C(C)C)NC1=O)C(C)C)C(C)C gave a creatinine of 82.9 ± 3.1 µmol/L (ICR mice, serum; intraperitoneal, 10 mg/kg, day 5).

For quick reference, copied from above:
Clc1cc(-c2cc(Cl)c(Cl)c(Cl)c2Cl)cc(Cl)c1Cl: “literature range factor” 1.1 (PDMS-water partitioning; PCB compilation; relative to: maximum over minimum K).
CO[C@H]1C[C@@H]2CC[C@@H](C)[C@@](O)(O2)C(=O)C(=O)N2CCCC[C@H]2C(=O)O[C@H]([C@H](C)C[C@@H]2CC[C@@H](OC(=O)NCCOCCOCCOCCOCCOCCOCCOCCOCCC(=O)N3CCc4cc(Cn5nc(-c6ccc7oc(N)nc7c6)c6c(N)ncnc65)ccc4C3)[C@H](OC)C2)C[C@@H](O)[C@H](C)/C=C(\C)[C@@H](O)[C@@H](OC)C(=O)[C@H](C)C[C@H](C)/C=C/C=C/C=C/1C — result for “dose-reducing adverse events”: 0% (phase 1 dose escalation, item: fatigue; advanced solid tumour patients; intravenous, 6 mg weekly, grade ≥3).
For O=S(=O)(Nc1ccccc1)c1ccc(NC(=S)Nc2ccccc2)cc1, the haematocrit was 47% (female mouse, blood; oral, 5 mg/kg daily, 14 days).
Under “body weight gain”, CCOc1cc(Oc2ccc(C(F)(F)F)cc2Cl)ccc1[N+](=O)[O-] is recorded as 63.5% (rat male; 7.5 mg/kg, 8 days).
